{"data": "Measured values of several laboratories", "cell line": "MCF7", "note": "Several values in a cell are separate wells, animals, samples, runs or records. Numbers after ± are the reported error."}
{"SMILES": "CC[C@H](C)[C@H](NC(=O)CNC(=O)[C@H](Cc1ccc(O)cc1)NC(=O)[C@H](CO)NC(=O)[C@H](Cc1ccc(O)cc1)NC(=O)[C@@H](NC(=O)[C@H](CC(=O)O)NC(=O)[C@H](CO)NC(=O)[C@H](CCC(N)=O)NC(=O)[C@H](Cc1ccccc1)NC(=O)[C@H](CO)NC(=O)[C@H](Cc1ccccc1)NC(=O)[C@@H]1CCCN1C(=O)[C@H](CC(N)=O)NC(=O)[C@H](CC(N)=O)NC(=O)[C@H](CC(=O)O)NC(=O)[C@H](CCC(N)=O)NC(=O)[C@@H]1CCCN1C(=O)[C@H](CCCNC(=N)N)NC(=O)[C@H](CCCNC(=N)N)NC(=O)[C@H](CCCNC(=N)N)NC(=O)[C@H](CCC(N)=O)NC(=O)[C@H](CCCNC(=N)N)NC(=O)[C@H](CCCNC(=N)N)NC(=O)[C@H](CCCCN)NC(=O)[C@H](CCCCN)NC(=O)[C@H](CCCNC(=N)N)NC(=O)CN)C(C)C)C(=O)N[C@H](C(=O)N[C@@H](CC(C)C)C(N)=O)C(C)C", "assay": "immunoblot densitometry, item: phospho-c-Raf Ser338", "conditions": "20 µM, 48 h, unit not given", "scale": "relative to: 0 µM", "quantity": "phospho-c-Raf level", "value": "0.192 and 0.254"}
{"SMILES": "CNC(=S)NCCCC[C@H](NC(=O)CCc1ccccc1)C(=O)N[C@@H](CCCNC(=N)N)C(=O)N[C@@H](CC1CCCCC1)C(=O)N[C@H](CCCCN)C(=O)N[C@@H](CC1CCCCC1)C(=O)N[C@H](CCCNC(=N)N)C(=O)N[C@@H](CC1CCCCC1)C(N)=O", "assay": "cell growth or viability, MTT", "conditions": "72 h", "quantity": "EC50", "value": "18.5 µM"}
{"SMILES": "O=C(N[C@H](Cc1ccccc1)C(=O)N[C@H](Cc1ccccc1)C(=O)N[C@@H](Cc1ccc(OP(=O)(O)O)cc1)C(=O)O)OCC1c2ccccc2-c2ccccc21", "assay": "mitochondrial membrane potential, flow cytometry", "conditions": "500 µM, 48 h", "quantity": "low-TMRM cells", "value": "60%"}
{"SMILES": "Cc1ccc2c(Br)cc(Br)c([O-])c2n1.Cc1ccc2c(Br)cc(Br)c([O-])c2n1.[Co+2].c1cnc2c(c1)c1nccnc1c1cccnc12", "assay": "cell growth or viability, MTT", "conditions": "48 h", "quantity": "IC50", "value": "6.99 µM"}
{"SMILES": "COc1ccc(CC(=O)N2CCN(CC(OCc3ccc4ccccc4c3)c3ccc(Cl)cc3Cl)CC2)cc1 (stereo not shown)", "assay": "cell growth or viability, MTT", "conditions": "24 h", "quantity": "IC50", "value": "23.8 µM"}
{"SMILES": "CC1CCC2C(C)C(OC(=O)CCC(=O)OC3C(C)OC(n4cc(F)c(=O)[nH]c4=O)C3OC(=O)CCC(=O)OC3OC4OC5(C)CCC6C(C)CCC(C3C)C46OO5)OC3OC4(C)CCC1C32OO4 (stereo not shown)", "assay": "cell growth or viability, CCK-8", "quantity": "IC50", "value": "> 50 µM"}
{"SMILES": "CC(C)(C)C(=O)OCOP(=O)(OCOC(=O)C(C)(C)C)C1CCCN(O)C1=O (stereo not shown)", "quantity": "log LC50", "value": "-4.08 log M"}
{"SMILES": "CCC1(c2ccc(NC(=O)CCC(=O)OC3OC4OC5(C)CCC6C(C)CCC(C3C)C46OO5)cc2)CCC(=O)NC1=O (mixture of isomers)", "assay": "cell growth or viability, CCK-8", "quantity": "IC50", "value": "> 50 µM"}
{"SMILES": "Cc1ccc(CC(=O)N2CCN(CC(OCc3ccc4ccccc4c3)c3ccc(Cl)cc3Cl)CC2)cc1 (stereo not shown)", "assay": "cell growth or viability, MTT", "conditions": "24 h", "quantity": "IC50", "value": "29.3 µM"}
{"SMILES": "Cc1ccc(C(C)C)cc1.F[P-](F)(F)(F)(F)F.[Cl][Os+]1[N]2C=CC=c3ccc4c(c32)[N]1C=CC=4", "assay": "cell growth or viability, MTT", "quantity": "IC50", "value": "73.1 µM"}
{"SMILES": "CC(C)Cc1ccc(C(C)C(=O)[O-])cc1.CC(C)Cc1ccc(C(C)C(=O)[O-])cc1.O.[Cu+2].c1ccncc1.c1ccncc1 (stereo not shown)", "assay": "cell growth, MTT", "conditions": "48 h", "quantity": "TGI", "value": "80 ± 4.9 µM"}
{"SMILES": "Cc1cc(Oc2nc(N3CC[C@@H](c4ccncc4)C3)ncc2F)[nH]n1", "assay": "cell growth or viability", "quantity": "IC50", "value": "32.4 µM"}
{"SMILES": "CC1OC2OC3C4=C(OC3(C)C12O)C(=O)c1c(O)cccc1C4=O (stereo not shown)", "assay": "sulforhodamine B", "conditions": "10 µg/mL, 48 h", "scale": "negative means cell kill", "quantity": "growth percent", "value": "-90.6%"}
{"note": "A few entries again:"}
{"SMILES": "Cc1ccc(C(C)C)cc1.F[P-](F)(F)(F)(F)F.[Cl][Os+]1[N]2C=CC=c3ccc4c(c32)[N]1C=CC=4", "assay": "cell growth or viability, MTT", "quantity": "IC50", "value": "73.1 µM"}
{"SMILES": "CC(C)Cc1ccc(C(C)C(=O)[O-])cc1.CC(C)Cc1ccc(C(C)C(=O)[O-])cc1.O.[Cu+2].c1ccncc1.c1ccncc1 (stereo not shown)", "assay": "cell growth, MTT", "conditions": "48 h", "quantity": "TGI", "value": "80 ± 4.9 µM"}
